Measurements gathered from unrelated publications.
PPO3: PPO3 (Agaricus bisporus, UniProt C7FF04)
UniProt C7FF04, sequence (whole entry, looked up): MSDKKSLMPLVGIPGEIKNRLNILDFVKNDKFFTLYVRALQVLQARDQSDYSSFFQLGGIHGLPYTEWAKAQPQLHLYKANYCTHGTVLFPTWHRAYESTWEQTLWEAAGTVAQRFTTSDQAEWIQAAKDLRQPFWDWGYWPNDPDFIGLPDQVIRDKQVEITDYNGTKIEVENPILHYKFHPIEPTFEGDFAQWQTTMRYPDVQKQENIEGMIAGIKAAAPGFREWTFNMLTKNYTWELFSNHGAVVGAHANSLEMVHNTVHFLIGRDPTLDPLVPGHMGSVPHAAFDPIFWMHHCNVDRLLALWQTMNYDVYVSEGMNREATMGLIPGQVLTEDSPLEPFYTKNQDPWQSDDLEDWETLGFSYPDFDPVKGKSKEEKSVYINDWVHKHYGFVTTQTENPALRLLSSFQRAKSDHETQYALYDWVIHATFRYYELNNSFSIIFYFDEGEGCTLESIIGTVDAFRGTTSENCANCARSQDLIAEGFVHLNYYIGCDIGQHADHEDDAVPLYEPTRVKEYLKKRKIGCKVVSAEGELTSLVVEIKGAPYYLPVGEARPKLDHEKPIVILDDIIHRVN
Potassium/sodium hyperpolarization-activated cyclic nucleotide-gated channel 1: Potassium/sodium hyperpolarization-activated cyclic nucleotide-gated channel 1 (Homo sapiens, UniProt O60741)
UniProt O60741, sequence (whole entry, looked up): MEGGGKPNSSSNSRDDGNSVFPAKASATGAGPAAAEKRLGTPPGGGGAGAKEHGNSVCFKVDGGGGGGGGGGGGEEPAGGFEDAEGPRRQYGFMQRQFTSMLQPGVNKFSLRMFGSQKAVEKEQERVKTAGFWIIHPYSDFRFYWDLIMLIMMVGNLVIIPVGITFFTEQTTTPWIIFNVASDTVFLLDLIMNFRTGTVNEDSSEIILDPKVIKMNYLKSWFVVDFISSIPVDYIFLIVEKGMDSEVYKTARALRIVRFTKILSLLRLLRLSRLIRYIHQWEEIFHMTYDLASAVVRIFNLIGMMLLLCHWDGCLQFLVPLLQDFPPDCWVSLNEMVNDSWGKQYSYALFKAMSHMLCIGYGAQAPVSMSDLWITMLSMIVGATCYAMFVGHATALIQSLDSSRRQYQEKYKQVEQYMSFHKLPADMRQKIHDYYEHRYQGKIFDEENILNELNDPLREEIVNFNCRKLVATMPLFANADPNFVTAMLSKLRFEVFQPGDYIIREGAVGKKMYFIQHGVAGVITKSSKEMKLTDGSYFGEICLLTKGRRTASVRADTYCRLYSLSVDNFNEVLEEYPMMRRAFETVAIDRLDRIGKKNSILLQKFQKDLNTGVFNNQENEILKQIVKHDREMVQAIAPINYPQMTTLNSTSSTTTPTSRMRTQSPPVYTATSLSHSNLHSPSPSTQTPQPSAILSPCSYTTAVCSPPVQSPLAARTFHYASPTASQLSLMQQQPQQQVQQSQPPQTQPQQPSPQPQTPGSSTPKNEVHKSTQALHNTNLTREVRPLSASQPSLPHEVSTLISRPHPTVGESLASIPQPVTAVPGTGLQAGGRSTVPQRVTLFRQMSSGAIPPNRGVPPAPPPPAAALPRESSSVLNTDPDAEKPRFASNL
4'-phosphopantetheinyl transferase PptT: 4'-phosphopantetheinyl transferase PptT (Mycobacterium tuberculosis, UniProt O33336)
UniProt O33336, sequence (whole entry, looked up): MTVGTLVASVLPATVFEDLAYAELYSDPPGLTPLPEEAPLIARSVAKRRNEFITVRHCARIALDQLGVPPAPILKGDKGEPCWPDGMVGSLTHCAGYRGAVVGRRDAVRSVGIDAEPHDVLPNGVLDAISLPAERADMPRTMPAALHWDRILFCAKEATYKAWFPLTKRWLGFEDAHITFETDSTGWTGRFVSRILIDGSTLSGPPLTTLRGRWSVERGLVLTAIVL
UniProt P21728, sequence (whole entry, looked up): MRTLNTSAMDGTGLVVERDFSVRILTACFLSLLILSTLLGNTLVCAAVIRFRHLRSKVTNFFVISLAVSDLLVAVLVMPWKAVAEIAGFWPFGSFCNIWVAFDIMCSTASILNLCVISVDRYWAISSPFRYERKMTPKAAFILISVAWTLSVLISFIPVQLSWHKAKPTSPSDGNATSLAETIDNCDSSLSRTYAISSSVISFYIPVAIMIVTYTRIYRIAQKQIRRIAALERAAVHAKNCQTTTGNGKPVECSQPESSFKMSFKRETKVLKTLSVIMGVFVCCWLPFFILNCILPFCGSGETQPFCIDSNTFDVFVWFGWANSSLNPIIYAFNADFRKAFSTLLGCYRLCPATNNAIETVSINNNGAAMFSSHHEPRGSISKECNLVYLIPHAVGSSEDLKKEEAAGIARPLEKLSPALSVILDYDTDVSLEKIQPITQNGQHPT
UniProt Q5U3Y7, sequence (whole entry, looked up): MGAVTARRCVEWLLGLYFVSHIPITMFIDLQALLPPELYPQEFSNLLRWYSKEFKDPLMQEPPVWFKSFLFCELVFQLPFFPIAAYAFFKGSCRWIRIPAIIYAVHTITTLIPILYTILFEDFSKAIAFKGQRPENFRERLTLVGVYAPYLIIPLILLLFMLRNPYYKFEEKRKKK
UniProt P03372, sequence (whole entry, looked up): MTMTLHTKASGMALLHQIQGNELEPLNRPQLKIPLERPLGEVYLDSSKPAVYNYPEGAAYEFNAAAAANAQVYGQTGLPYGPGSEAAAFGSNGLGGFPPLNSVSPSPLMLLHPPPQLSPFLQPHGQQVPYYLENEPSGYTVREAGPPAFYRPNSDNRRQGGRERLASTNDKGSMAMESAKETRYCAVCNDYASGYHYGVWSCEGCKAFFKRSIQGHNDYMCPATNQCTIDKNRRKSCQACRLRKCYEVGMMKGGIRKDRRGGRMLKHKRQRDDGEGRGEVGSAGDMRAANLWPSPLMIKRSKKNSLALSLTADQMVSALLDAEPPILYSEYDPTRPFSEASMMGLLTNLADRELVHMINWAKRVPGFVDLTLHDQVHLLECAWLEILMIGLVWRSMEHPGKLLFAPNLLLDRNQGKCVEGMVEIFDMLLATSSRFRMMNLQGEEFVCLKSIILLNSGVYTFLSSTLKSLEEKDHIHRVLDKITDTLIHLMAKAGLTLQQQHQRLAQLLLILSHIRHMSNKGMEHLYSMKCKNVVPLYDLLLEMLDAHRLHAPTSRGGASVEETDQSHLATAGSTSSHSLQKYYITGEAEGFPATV
UniProt O00329, sequence (whole entry, looked up): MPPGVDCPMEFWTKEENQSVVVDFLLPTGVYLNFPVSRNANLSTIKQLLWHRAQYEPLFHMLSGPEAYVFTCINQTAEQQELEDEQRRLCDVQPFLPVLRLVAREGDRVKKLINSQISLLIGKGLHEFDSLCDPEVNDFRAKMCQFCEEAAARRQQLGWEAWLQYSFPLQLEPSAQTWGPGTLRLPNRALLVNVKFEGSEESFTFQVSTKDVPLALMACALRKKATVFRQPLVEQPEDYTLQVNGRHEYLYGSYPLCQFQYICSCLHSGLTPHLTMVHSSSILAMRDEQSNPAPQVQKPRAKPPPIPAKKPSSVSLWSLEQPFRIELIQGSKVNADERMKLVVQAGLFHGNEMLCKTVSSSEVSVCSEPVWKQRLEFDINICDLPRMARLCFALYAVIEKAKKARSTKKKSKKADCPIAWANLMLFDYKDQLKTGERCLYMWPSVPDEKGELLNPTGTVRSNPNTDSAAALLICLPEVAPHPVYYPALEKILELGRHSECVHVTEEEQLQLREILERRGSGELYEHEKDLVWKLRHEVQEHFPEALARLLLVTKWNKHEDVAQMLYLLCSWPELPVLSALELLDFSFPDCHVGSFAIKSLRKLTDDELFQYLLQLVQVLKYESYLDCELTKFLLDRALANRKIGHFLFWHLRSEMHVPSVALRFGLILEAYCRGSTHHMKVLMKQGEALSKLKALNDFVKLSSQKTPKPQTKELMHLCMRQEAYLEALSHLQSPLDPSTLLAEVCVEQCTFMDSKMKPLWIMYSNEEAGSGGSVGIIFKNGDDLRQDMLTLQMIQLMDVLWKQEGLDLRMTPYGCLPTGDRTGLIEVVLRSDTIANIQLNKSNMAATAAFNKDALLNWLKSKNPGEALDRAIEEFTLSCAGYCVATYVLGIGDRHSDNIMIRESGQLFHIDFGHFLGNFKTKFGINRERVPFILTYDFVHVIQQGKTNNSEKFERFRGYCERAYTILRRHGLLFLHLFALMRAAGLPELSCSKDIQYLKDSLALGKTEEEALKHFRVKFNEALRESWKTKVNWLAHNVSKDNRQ
UniProt P41595, sequence (whole entry, looked up): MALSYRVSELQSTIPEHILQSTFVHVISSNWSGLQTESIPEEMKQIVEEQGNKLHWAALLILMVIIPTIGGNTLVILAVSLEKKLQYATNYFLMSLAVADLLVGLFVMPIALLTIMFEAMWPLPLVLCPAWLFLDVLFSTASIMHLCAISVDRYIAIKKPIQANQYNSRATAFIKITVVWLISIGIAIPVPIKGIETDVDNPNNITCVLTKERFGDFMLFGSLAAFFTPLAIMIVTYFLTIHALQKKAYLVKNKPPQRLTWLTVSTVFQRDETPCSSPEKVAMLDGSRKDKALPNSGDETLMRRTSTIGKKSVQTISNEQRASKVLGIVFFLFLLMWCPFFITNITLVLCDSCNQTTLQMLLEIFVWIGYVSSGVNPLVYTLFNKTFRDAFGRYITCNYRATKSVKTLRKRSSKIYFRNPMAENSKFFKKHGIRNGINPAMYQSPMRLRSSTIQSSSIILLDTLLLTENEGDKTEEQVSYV
UniProt P41145, sequence (whole entry, looked up): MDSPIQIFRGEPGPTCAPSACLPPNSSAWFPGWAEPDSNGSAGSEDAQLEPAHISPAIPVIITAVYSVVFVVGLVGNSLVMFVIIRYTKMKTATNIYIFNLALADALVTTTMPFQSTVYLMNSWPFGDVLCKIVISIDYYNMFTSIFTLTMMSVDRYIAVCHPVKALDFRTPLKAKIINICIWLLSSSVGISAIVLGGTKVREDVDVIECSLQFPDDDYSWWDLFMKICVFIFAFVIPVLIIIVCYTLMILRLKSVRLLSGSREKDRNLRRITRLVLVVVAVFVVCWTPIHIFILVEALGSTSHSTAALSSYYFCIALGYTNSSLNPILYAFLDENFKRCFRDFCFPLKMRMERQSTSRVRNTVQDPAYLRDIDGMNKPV

Compound	target or system	assay	setting	quantity	value
Nc1ncnc2c1ncn2[C@@H]1O[C@H](C[C@@H](N)CC[C@H](N)C(=O)O)[C@@H](O)[C@H]1O	mRNA cap guanine-N(7) methyltransferase (RNMT, Homo sapiens, UniProt O43148)	enzyme activity, inhibitor	0.7812 µM	inhibition	27.5%
COc1cc(/C=C/C(=O)O)ccc1OCc1cn(CC(=O)Nc2ccc(C)cc2)nn1	PPO3	enzyme activity, inhibitor	40 µM	inhibition	13.2%
CC(=O)Nc1ccc(O)cc1	Potassium/sodium hyperpolarization-activated cyclic nucleotide-gated channel 1	ion current, inhibitor	3 µM	inhibition	4.42%
Cc1nn(C)cc1-c1nc2c(N3CCN(Cc4ccc(Cl)cc4)CC3)c(Cl)cnc2[nH]1	Serine/threonine-protein kinase 3 (STK3, Homo sapiens, UniProt Q13188)	binding, competition with immobilised ligand	1 µM	remaining binding	100%
Nc1ncc(-c2nc(N3CCOCC3)nc(N3CCOCC3)n2)c(C(F)F)n1	Mitogen-activated protein kinase kinase kinase kinase 3 (MAP4K3, Homo sapiens, UniProt Q8IVH8)	binding, competition with immobilised ligand	10 µM	remaining binding	87%
CC(C)NCC(O)COc1cccc2ccccc12 (centres unmarked)	Potassium/sodium hyperpolarization-activated cyclic nucleotide-gated channel 1	ion current, inhibitor	30 µM	inhibition	2.99%
COc1cc2cc3c4c(cc(OC)c(OC)c4c2cc1OC)CCN3C	5-hydroxytryptamine receptor 2B (HTR2B, Homo sapiens, UniProt P41595)	ligand displacement, radioligand	10 µM	inhibition	33%
c1cncc([C@@H]2CCCN2)c1	Beta-3 adrenergic receptor (ADRB3, Homo sapiens, UniProt P13945)	ligand displacement	50 µM	inhibition	0.12%
Nc1ccncc1	Potassium/sodium hyperpolarization-activated cyclic nucleotide-gated channel 1	ion current, inhibitor	30 µM	inhibition	-415%
CC(C)C[C@H]1C(=O)N2CCC[C@H]2[C@]2(O)O[C@](NC(=O)[C@@H]3C=C4c5cccc6[nH]c(Br)c(c56)C[C@H]4[N+](C)(C)C3)(C(C)C)C(=O)N12	Kappa-type opioid receptor (OPRK1, Homo sapiens, UniProt P41145)	ligand displacement, radioligand	10 µM	inhibition	80%
O=c1c2cc(Cl)ccc2[nH]c(=S)n1Cc1ccccn1	4'-phosphopantetheinyl transferase PptT	enzyme activity, inhibitor, FP	–	IC50	23200 nM
[2H]c1c([2H])c([C@]2([2H])CCCN2C(=O)C(C)(C)Oc2ccc3cn[nH]c3c2)c([2H])c([2H])c1C([2H])([2H])[2H]	Testis-specific serine/threonine-protein kinase 1 (TSSK1B, Homo sapiens, UniProt Q9BXA7)	binding, competition with immobilised ligand	1 µM	remaining binding	66%
CC(C)[C@@H]1NC(=O)[C@@H](CC(N)=O)NC(=O)[C@H](CCCN)NC(=O)[C@@H](CC(N)=O)NC(=O)[C@H](CCCCN)NC(=O)[C@H](C(C)C)NC(=O)[C@@H](C(C)C)NC(=O)[C@@H](C(C)C)NC(=O)[C@@H](C(C)C)NC1=O	Balamuthia mandrillaris	parasite growth, ATP luminescence	–	IC90	> 16 µg/mL
COc1cc(/C=C/C(=O)O)ccc1OCc1cn(CC(=O)Nc2ccc(F)cc2)nn1	PPO3	enzyme activity, inhibitor	40 µM	inhibition	14.2%
Cc1ncc2c(n1)[C@H](C)[C@@H]1C[C@H]2[C@@](C)(O)CN1Cc1ccccc1	Sigma intracellular receptor 2 (Tmem97, Rattus norvegicus, UniProt Q5U3Y7)	ligand displacement, radioligand	1 µM	inhibition	0%
CC[C@H](C)[C@H](NC(=O)[C@@H](NC(=O)[C@H](N)Cc1ccccc1)C(C)C)C(=O)N[C@@H](C)C(N)=O	Amyloid-beta precursor protein (APP, Homo sapiens, UniProt P05067)	amyloid aggregation, inhibitor, fluorescence	4 µM, 24 h	inhibition	100%
COc1ncccc1-c1cnn2ccc(N3CCN(C(=O)OC(C)C)CC3)nc12	Serine/threonine-protein kinase Nek5 (NEK5, Homo sapiens, UniProt Q6P3R8)	binding, competition with immobilised ligand	1 µM	remaining binding	88%
Nc1c(Br)cc(Br)cc1CN[C@H]1CC[C@H](O)CC1	Potassium/sodium hyperpolarization-activated cyclic nucleotide-gated channel 1	ion current, inhibitor	10 µM	inhibition	-1.22%
CC(C)CC(=O)OC[C@H]1O[C@@](C#N)(c2ccc3c(N)ncnn23)[C@H](O)[C@@H]1O	Estrogen receptor (ESR1, Homo sapiens, UniProt P03372)	cell-free assay	20 µM	inhibition	-2%
Cn1c(=O)c2[nH]cnc2n(C)c1=O	Potassium/sodium hyperpolarization-activated cyclic nucleotide-gated channel 1	ion current, inhibitor	10 µM	inhibition	11.7%
Cc1ccc2[nH]c(=S)n(Cc3cccnc3)c(=O)c2c1	4'-phosphopantetheinyl transferase PptT	enzyme activity, inhibitor, FP	–	IC50	830 nM
Cn1cc(-c2cccc(N3CCc4c(sc5c4CC(C)(C)C5)C3=O)c2CO)cc(Nc2ccncn2)c1=O	Phosphatidylinositol 4,5-bisphosphate 3-kinase catalytic subunit delta isoform (PIK3CD, Homo sapiens, UniProt O00329)	enzyme activity, inhibitor	1 µM	inhibition	-5%
C#Cc1n[nH]c2c(-c3cn([C@@H](C)c4ccccn4)c(=O)[nH]c3=O)cc(F)cc12	Proto-oncogene tyrosine-protein kinase receptor Ret (RET, Homo sapiens, UniProt P07949)	enzyme activity, inhibitor	0.1 µM	inhibition	6.5%
O=C1NC(=O)C(c2ccccc2)(c2ccccc2)N1	Potassium/sodium hyperpolarization-activated cyclic nucleotide-gated channel 1	ion current, inhibitor	30 µM	inhibition	6.55%
N.N.[Cl][Pt][Cl]	L-82	cell growth or viability, ATP luminescence	72 h	IC50	940 nM
CN1CCC[C@H]1c1cccnc1	D(1A) dopamine receptor (DRD1, Homo sapiens, UniProt P21728)	ligand displacement	50 µM	inhibition	-2.56%

For quick reference, copied from above:
Compound	target or system	assay	setting	quantity	value
COc1cc2cc3c4c(cc(OC)c(OC)c4c2cc1OC)CCN3C	5-hydroxytryptamine receptor 2B (HTR2B, Homo sapiens, UniProt P41595)	ligand displacement, radioligand	10 µM	inhibition	33%
Nc1ncnc2c1ncn2[C@@H]1O[C@H](C[C@@H](N)CC[C@H](N)C(=O)O)[C@@H](O)[C@H]1O	mRNA cap guanine-N(7) methyltransferase (RNMT, Homo sapiens, UniProt O43148)	enzyme activity, inhibitor	0.7812 µM	inhibition	27.5%
